Experimental data gathered from unrelated publications.
Lines come from different studies, so protocols differ. Numbers after ± are the reported error.
B1: human SMC1A; sequence looked up; chain MGFLKLIEIENFKSYKGRQIIGPFQRFTAIIGPNGSGKSNLMDAISFVLGEKTSNLRVKTLRDLIHGAPVGKPAANRAFVSMVYSEEGAEDRTFARVIVGGSSEYKINNKVVQLHEYSEELEKLGILIKARNFLVFQGAVESIAMKNPKERTALFEEISRSGELAQEYDKRKKEMVKAEEDTQFNYHRKKNIAAERKEAKQEKEEADRYQRLKDEVVRAQVQLQLFKLYHNEVEIEKLNKELASKNKEIEKDKKRMDKVEDELKEKKKELGKMMREQQQIEKEIKEKDSELNQKRPQYIKAKENTSHKIKKLEAAKKSLQNAQKHYKKRKGDMDELEKEMLSVEKARQEFEERMEEESQSQGRDLTLEENQVKKYHRLKEEASKRAATLAQELEKFNRDQKADQDRLDLEERKKVETEAKIKQKLREIEENQKRIEKLEEYITTSKQSLEEQKKLEGELTEEVEMAKRRIDEINKELNQVMEQLGDARIDRQESSRQQRKAEIMESIKRLYPGSVYGRLIDLCQPTQKKYQIAVTKVLGKNMDAIIVDSEKTGRDCIQYIKEQRGEPETFLPLDYLEVKPTDEKLRELKGAKLVIDVIRYEPPHIKKALQYACGNALVCDNVEDARRIAFGGHQRHKTVALDGTLFQKSGVISGGASDLKAKARRWDEKAVDKLKEKKERLTEELKEQMKAKRKEAELRQVQSQAHGLQMRLKYSQSDLEQTKTRHLALNLQEKSKLESELANFGPRINDIKRIIQSREREMKDLKEKMNQVEDEVFEEFCREIGVRNIREFEEEKVKRQNEIAKKRLEFENQKTRLGIQLDFEKNQLKEDQDKVHMWEQTVKKDENEIEKLKKEEQRHMKIIDETMAQLQDLKNQHLAKKSEVNDKNHEMEEIRKKLGGANKEMTHLQKEVTAIETKLEQKRSDRHNLLQACKMQDIKLPLSKGTMDDISQEEGSSQGEDSVSGSQRISSIYAREALIEIDYGDLCEDLKDAQAEEEIKQEMNTLQQKLNEQQSVLQRIAAPNMKAMEKLESVRDKFQETSDEFEAARKRAKKAKQAFEQIKKERFDRFNACFESVATNIDEIYKALSRNSSAQAFLGPENPEEPYLDGINYNCVAPGKRFRPMDNLSGGEKTVAALALLFAIHSYKPAPFFVLDEIDAALDNTNIGKVANYIKEQSTCNFQAIVISLKEEFYTKAESLIGVYPEQGDCVISKVLTFDLTKYPDANPNPNEQ
Chain of UniProt P21980 (whole entry, looked up): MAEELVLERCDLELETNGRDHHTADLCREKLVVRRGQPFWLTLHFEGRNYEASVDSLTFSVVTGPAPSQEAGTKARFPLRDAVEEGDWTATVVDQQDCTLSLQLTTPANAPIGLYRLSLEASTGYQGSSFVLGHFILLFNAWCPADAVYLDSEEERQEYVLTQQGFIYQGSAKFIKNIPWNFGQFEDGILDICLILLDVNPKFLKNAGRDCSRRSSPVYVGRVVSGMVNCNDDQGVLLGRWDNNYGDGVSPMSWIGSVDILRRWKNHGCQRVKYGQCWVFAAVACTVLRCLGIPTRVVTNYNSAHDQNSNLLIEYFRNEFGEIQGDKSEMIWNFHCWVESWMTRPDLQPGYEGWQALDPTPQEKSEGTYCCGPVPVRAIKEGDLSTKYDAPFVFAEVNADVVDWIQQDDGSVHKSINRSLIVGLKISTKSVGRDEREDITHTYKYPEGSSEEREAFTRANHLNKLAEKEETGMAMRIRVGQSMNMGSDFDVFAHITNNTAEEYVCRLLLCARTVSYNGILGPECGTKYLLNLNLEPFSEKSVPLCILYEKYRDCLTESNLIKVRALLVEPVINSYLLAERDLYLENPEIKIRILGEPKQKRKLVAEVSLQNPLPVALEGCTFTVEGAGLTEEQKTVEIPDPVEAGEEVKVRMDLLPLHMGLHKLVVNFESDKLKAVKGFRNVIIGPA

Substance = ACDDQNPWRAYLDLLFPTDTLLLDLLW; assay = ex vivo fluorescence imaging; system = peptide, BALB/c mice, 4T1 tumour-bearing, 4T1 tumour; conditions = intravenous, 5 nmol, 48 h post-injection; how to read = higher = more uptake; measurement = mean fluorescence intensity; value = 1230 ± 282 a.u.
Substance = insulin; assay = LC-MS/MS; system = prepared human sample; conditions = one freeze-thaw cycle, low pool; measurement = concentration; value = 0.00033 µg/mL
Substance = human ME2 D102S; assay = enzyme activity, substrate; system = recombinant enzyme; conditions = pH 7.4, added: no fumarate; measurement = K0.5; value = 7.62 ± 0.14 mM
Substance = Neuropeptide Y; assay = RP-HPLC; system = HALO Peptide ES-C18 column; conditions = 25 µM, acetic acid/acetonitrile, 10 min gradient; measurement = retention time; value = 6.06 min
Substance = ACEEQNPWARYLEWLFPTETLLLEL; assay = ex vivo fluorescence imaging; system = peptide, BALB/c mice, 4T1 tumour-bearing, liver; conditions = intravenous, 5 nmol, 48 h post-injection; how to read = higher = more uptake; measurement = mean fluorescence intensity; value = 194 ± 20.6 a.u.
Substance = Malic enzyme 2 S121Q (human); assay = enzyme activity, substrate; system = recombinant enzyme; conditions = pH 7.4, added: fumarate 3 mM; measurement = K0.5; value = 2.11 ± 0.05 mM
Substance = insulin icodec; system = Chinese type 2 diabetes patients, serum; conditions = subcutaneous, once-weekly geometric mean; measurement = half-life, steady state; value = 159 h
Substance = human ME2 R67A; assay = enzyme activity, substrate; system = recombinant enzyme; conditions = pH 7.4, added: fumarate 3 mM; measurement = K0.5; value = 0.98 ± 0.11 mM
Substance = liraglutide; system = Wistar rat, female, diet-induced obese, blood, fasted; conditions = subcutaneous, dose not given, after 4 weeks treatment; measurement = serum ALT; value = 24 ± 1.8 U/L
Substance = durvalumab; system = human, plasma; conditions = intravenous, 1500 mg, cycle 4 day 1, geometric mean, added: adavosertib 250 mg once daily; measurement = Cmax; value = 470 µg/mL
Substance = SSRP1 (human); tested on = PP6C (human); assay = co-immunoprecipitation, IP-MS; system = CYB5R4 knockout cells; conditions = concentration not given; how to read = relative to: CYB5R4 knockout over parental; measurement = log2 fold change; value = -0.74
Substance = insulin icodec; system = human, severe renal impairment, serum; conditions = subcutaneous, 1.5 U/kg single dose, one outlier excluded; how to read = relative to: normal renal function; measurement = AUC(0-inf) increase; value = 28%
Substance = human ME2 I99V; assay = enzyme activity, substrate; system = recombinant enzyme; conditions = pH 7.4, added: fumarate 3 mM; measurement = K0.5; value = 4.76 ± 0.19 mM
Substance = insulin aspart; assay = ELISA, measured: total insulin aspart; system = human, type 1 diabetes, serum; conditions = subcutaneous, dose not given, least squares mean; measurement = Cmax; value = 0.553 nM
Substance = adrenomedullin; assay = RP-HPLC; system = HALO Phenyl-hexyl column; conditions = 25 µM, formic acid/acetonitrile, 10 min gradient; measurement = retention time; value = 3.75 min
Substance = insulin degludec; system = human; conditions = subcutaneous, 0.4 IU/kg, 2 FC level, single dose, reference formulation; measurement = Tmax, median; value = 10 h
Substance = insulin icodec; system = Japanese patients with type 1 diabetes; conditions = log AUCτ vs log dose; measurement = dose-proportionality slope; value = 1.17
Substance = rituximab; system = relapsed iNHL patients; conditions = dose not given, before fourth infusion; measurement = serum concentration; value = 174 µg/mL
Substance = human ME2 R91A; assay = enzyme activity, substrate; system = recombinant enzyme; conditions = pH 7.4, added: no fumarate; measurement = K0.5; value = 1.88 ± 0.29 mM
Substance = insulin; assay = ELISA; system = Sprague-Dawley rat, serum; conditions = subcutaneous, 5 IU/kg; measurement = Tmax; value = 1 h
Substance = Malic enzyme 2 S106K (human); assay = enzyme activity, substrate; system = recombinant enzyme; conditions = pH 7.4, added: fumarate 3 mM; measurement = K0.5; value = 4.04 ± 0.1 mM
Substance = B1 (human SMC1A); tested on = PP6C (human); assay = co-immunoprecipitation, IP-MS; system = CYB5R4 knockout cells; conditions = concentration not given; how to read = relative to: CYB5R4 knockout over parental; measurement = log2 fold change; value = -1.5
Substance = GGGAGCAGGAGAGAGGUCAGAUGAACGGUAAACGUGCAAGCCAGUCCUGUUCUCCUAUGCGUGCUAGUGUGA (ssRNA; 2'-fluoro pyrimidines); tested on = TGM2 2-687 (Homo sapiens, UniProt P21980); assay = SPR; system = RNA; conditions = added: MgCl2 5 mM; how to read = higher = more binding; measurement = relative binding; value = -10.3 RU
Substance = pegcetacoplan; assay = measured: investigations; system = patients with PNH; conditions = dose not given, phase Ib trial; measurement = number of TEAEs; value = 22
Substance = human ME2 Q51H; assay = enzyme activity, substrate; system = recombinant enzyme; conditions = pH 7.4, added: no fumarate; measurement = K0.5; value = 6.31 ± 0.27 mM
Substance = ACEQNPIYWARYADWLFTTPLLLLDLALLVDADEGT; assay = ex vivo fluorescence imaging; system = peptide, BALB/c mice, 4T1 tumour-bearing, muscle; conditions = intravenous, 5 nmol, 48 h post-injection; how to read = higher = more uptake; measurement = mean fluorescence intensity; value = 194 ± 18.1 a.u.
Substance = FNA / CGLSGLGVA-NH2 ([18F]FNA-labelled, C-amide); assay = gamma counting; system = peptide, glioblastoma mice, femur (bone and marrow); conditions = 60 min; measurement = tissue uptake; value = 0.59 %ID/g
Substance = human ME2 Q101T; assay = enzyme activity, substrate; system = recombinant enzyme; conditions = pH 7.4, added: fumarate 3 mM; measurement = K0.5; value = 3.62 ± 0.31 mM

A few entries again:
Substance = liraglutide; system = Wistar rat, female, diet-induced obese, blood, fasted; conditions = subcutaneous, dose not given, after 4 weeks treatment; measurement = serum ALT; value = 24 ± 1.8 U/L
